Published values of several laboratories.
Numbered parts are unrelated; each lists some results of a single study. Changes are numbered by the printed parent chain.

Set 1 — target: CCND1, cyclin fold, Cln2 fusion (human); method: yeast growth competition, sequencing; sample: yeast; notes: weak parent motif; baseline: not given; direction: higher = stronger binding
Parent: DOT1L docking peptide (human); SEAKRRIVFTITT
`SEAARRIVFTITT [K4A]` — result for “normalised enrichment score”: 0.24.
Under “normalised enrichment score”, `SEAKRRIVFTIAT [T12A]` is recorded as 0.237.
`SEAKRRIVFTATT [I11A]`: “normalised enrichment score” 0.0702.
Under “normalised enrichment score”, `SEAKRAIVFTITT [R6A]` is recorded as 0.404.
For `SAAKRRIVFTITT [E2A]`, “normalised enrichment score” read 0.49.
`AEAKRRIVFTITT [S1A]`: “normalised enrichment score” 0.45.

Set 2 — method: protein-binding microarray; molecule type: double-stranded DNA, one strand shown; sample: in vitro; tested at: 2540 nM top; notes: 60-bp whole probe; together with: salmon DNA 0.4 mg/ml; baseline: random background probes; direction: higher = stronger binding; all sequences stand within: GCCTAGCAC … GTCTTGATTCGCTTGACGCTGCTG
Target: Interferon regulatory factor 3, full length, phosphomimetic (IRF3, Homo sapiens, UniProt Q14653, residues 1-427, S386D/S396D/S398D/S402D/T404D/S405D)
UniProt Q14653, sequence (whole entry, unmodified, looked up): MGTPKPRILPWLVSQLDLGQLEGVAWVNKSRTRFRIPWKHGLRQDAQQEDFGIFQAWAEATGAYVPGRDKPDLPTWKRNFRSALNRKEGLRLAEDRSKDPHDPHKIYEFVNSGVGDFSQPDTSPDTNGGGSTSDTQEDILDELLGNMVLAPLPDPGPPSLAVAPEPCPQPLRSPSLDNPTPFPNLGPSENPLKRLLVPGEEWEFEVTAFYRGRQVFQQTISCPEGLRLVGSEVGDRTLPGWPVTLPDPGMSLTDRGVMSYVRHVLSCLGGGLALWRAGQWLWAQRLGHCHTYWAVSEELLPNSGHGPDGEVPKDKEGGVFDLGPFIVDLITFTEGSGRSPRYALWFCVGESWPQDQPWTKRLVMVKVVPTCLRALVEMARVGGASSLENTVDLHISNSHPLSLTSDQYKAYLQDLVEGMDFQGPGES
For `CTTGCTTCCCAATTCTCTTTGTGCTAG`, “fitted relative affinity” read 1.68 z-score.
`TTAGAACTGAGTCTCGACTAGTGCTAG` — result for “fitted relative affinity”: -0.619 z-score.
For `ATGTGTTTACATATGTTTTTGTGCTAG`, “fitted relative affinity” read 0.494 z-score.
For `GACGATGTCAGTATCGAGACGTGCTAG`, “fitted relative affinity” read 0.45 z-score.
For `TGAGATATCGGGTTTCGATTAGTGCTA`, “fitted relative affinity” read 1.88 z-score.
`TCACTTTTCACTTTCTTACTGTGCTAG`: “fitted relative affinity” 3.37 z-score.

Set 3 — method: protein binding microarray; molecule type: double-stranded DNA, one strand shown; sample: in vitro; tested at: not given; baseline: not given; direction: higher = stronger binding
Target: Histone acetyltransferase KAT6A, both winged helices, GST fusion (KAT6A, Homo sapiens, UniProt Q92794, residues 1-181)
Notes: 8-mer, flanks averaged, mean of 2 arrays, mostly near background
Residues (chain): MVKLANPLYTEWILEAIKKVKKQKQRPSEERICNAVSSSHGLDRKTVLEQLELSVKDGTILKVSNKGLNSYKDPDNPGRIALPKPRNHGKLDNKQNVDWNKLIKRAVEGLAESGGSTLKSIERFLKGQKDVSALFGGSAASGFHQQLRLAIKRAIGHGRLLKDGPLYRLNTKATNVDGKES
`AGGGTGTG` has an E-score of -0.151.
`CAATAGGA` gave an E-score of -0.136.
The E-score of `CCCATCCC` is reported as -0.0741.
The E-score of `ACGTCATC` is reported as 0.00704.
`CAGATTGA` has an E-score of 0.04.

Further values, each from its own experiment
`PhoQ, residues 284 288 289 292 302 303 AGHLVA` gave a fold induction of 13.2 (PhoP, residues 12 14 15 18 19 LHTVM (Escherichia coli, UniProt P23836); Sort-seq, measured: YFP reporter; E. coli; PhoQ-PhoP variant library, together with: 10 µM Mg2+; baseline: high Mg2+ state, higher = stronger signaling).

For quick reference, copied from above (set 2):
For `ATGTGTTTACATATGTTTTTGTGCTAG`, “fitted relative affinity” read 0.494 z-score.
For `GACGATGTCAGTATCGAGACGTGCTAG`, “fitted relative affinity” read 0.45 z-score.
